Results gathered from unrelated publications.
Compare with care: the assays were run in different laboratories. ± gives the spread as reported.
Target: Cytochrome P450 1A2 (CYP1A2, Homo sapiens, UniProt P05177)
Residues used in one study (P05177 2-516, limits assumed): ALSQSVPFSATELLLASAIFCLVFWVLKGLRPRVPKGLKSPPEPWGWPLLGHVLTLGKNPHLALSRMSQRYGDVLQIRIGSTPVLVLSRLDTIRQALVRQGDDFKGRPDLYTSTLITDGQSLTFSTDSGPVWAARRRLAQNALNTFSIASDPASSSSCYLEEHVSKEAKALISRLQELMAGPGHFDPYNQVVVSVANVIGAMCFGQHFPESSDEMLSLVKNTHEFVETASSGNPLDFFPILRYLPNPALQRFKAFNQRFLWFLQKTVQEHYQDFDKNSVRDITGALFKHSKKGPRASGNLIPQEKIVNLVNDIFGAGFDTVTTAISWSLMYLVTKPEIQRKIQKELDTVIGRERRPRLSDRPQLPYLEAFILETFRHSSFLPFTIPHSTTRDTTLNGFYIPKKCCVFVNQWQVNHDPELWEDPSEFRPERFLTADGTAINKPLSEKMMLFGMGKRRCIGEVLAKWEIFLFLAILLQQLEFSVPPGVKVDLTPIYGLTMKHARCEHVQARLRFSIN

Cn1c(=O)c2c(ncn2C)n(C)c1=O has a Vd/F of 43.1 L (human, plasma; oral, 200 mg, day 1, alone, arithmetic mean).
O=c1c(O)c(-c2ccccc2)oc2ccc(O)cc12 gave a remaining activity of 7.62 ± 0.26% (LC-MS/MS, refers to: acetaminophen; human liver microsomes; 10 µM, 30 min, pH 7.4, together with: 50 µM phenacetin).
With C=CC(=O)Nc1cc(Nc2nccc(-c3cn(C)c4ccccc34)n2)c(OCC(F)(F)F)nc1N(C)CCN(C)C the intrinsic clearance was 0.45 µL/min/pmol (substrate depletion; recombinant human CYP; 1 µM).
The intrinsic clearance of N#C[C@H](C[C@@H]1CCCNC1=O)NC(=O)[C@H](CC1CC1)NC(=O)c1cc2cccc(Cl)c2[nH]1 is reported as less than 0.054 µL/min/pmol (NADPH metabolic stability; 2 µM, pH 7.4, 100 pmol/mL enzyme).
COc1cc(O)c(CC=C(C)C)c2c1C(=O)CC(c1ccc(O)cc1)O2 (stereo not drawn) has an inhibition of 48.2 ± 4.6% (enzyme activity, inhibitor; human liver microsomes; 10 µM, pH 7.4, together with: phenacetin).
With Cn1c(=O)c2c(ncn2C)n(C)c1=O the AUC(0-t) was 6480 ng·h/mL (refers to: paraxanthine; human, plasma; oral, 50 mg caffeine, day 1, cocktail with binimetinib and encorafenib).
CC(C)Cn1cnc2c(N)nc3ccccc3c21 gave a remaining compound of roughly 32% (substrate, LC-MS; recombinant microsomes; 0.5 µM, 15 min, pH 7.4, 37 °C; baseline: control).
The inhibition of CC(C)=CCc1c(O)cc(O)c2c1O[C@H](c1ccc(O)cc1)CC2=O is reported as greater than 88% (10 µM, pH 7.4).
The IC50 of C[C@@H](c1ccc2nccn2c1)n1nnc2ncc(-c3cnn(C)c3)nc21 is reported as greater than 100 µM (inhibitor; pooled human liver microsomes; reversible inhibition).
COc1c(-c2ccccc2)oc2ccccc2c1=O gave a remaining activity of 12 ± 0.41% (LC-MS/MS, refers to: acetaminophen; human liver microsomes; 10 µM, 30 min, pH 7.4, together with: 50 µM phenacetin).
For Nc1ccc2c(c1)CN1C(=O)c3ccccc3C1=N2, the metabolised fraction was 8.4% (substrate; recombinant human CYP1A2 microsomes; 10 µM, 120 min, together with: NADPH).
With COc1cc(O)c(CC=C(C)C)c(O)c1C(=O)/C=C/c1ccc(O)cc1 the inhibition was 11.8 ± 1.1% (enzyme activity, inhibitor; human liver microsomes; 10 µM, pH 7.4, together with: phenacetin).
The remaining activity of O=c1c(O)c(-c2ccccc2)oc2cc(O)ccc12 is reported as 14 ± 0.12% (LC-MS/MS, refers to: acetaminophen; human liver microsomes; 10 µM, 30 min, pH 7.4, together with: 50 µM phenacetin).
For CN(C(=O)n1cnc(-c2ccc[n+]([O-])c2)c1)C1CCCCC1, inhibition read “no effect” (enzyme activity, inhibitor; pooled human liver microsomes; 0.1 to 30 µg/mL).
For OCc1ccc(-c2nn(Cc3ccccc3)c3ccccc23)o1, the half-life was 42 s (substrate; recombinant human enzyme).
The remaining activity of COc1ccc2oc(-c3ccccc3)c(O)c(=O)c2c1 is reported as 17.33 ± 0.17% (LC-MS/MS, refers to: acetaminophen; human liver microsomes; 10 µM, 30 min, pH 7.4, together with: 50 µM phenacetin).
The inhibition of CC(C)=CCc1c(O)cc2c(c1O)C(=O)C[C@@H](c1ccc(O)cc1)O2 is reported as less than 10% (1 µM, pH 7.4).
The CLint of Cc1cc(C)c(CNC(=O)c2cc(Cl)c3c(c2C)O[C@@](C)([C@H]2CC[C@H](N(C)C)CC2)O3)c(=O)[nH]1 is reported as 0.00135 µL/min/pmol (recombinant human enzyme; 0 and 30 min, together with: enzyme 100 pmol/mL).

For quick reference, copied from above:
The inhibition of CC(C)=CCc1c(O)cc(O)c2c1O[C@H](c1ccc(O)cc1)CC2=O is reported as greater than 88% (10 µM, pH 7.4).
For CN(C(=O)n1cnc(-c2ccc[n+]([O-])c2)c1)C1CCCCC1, inhibition read “no effect” (enzyme activity, inhibitor; pooled human liver microsomes; 0.1 to 30 µg/mL).
